Experimental data pooled from the literature.
Protocols differ between the studies behind these lines.

Structure (SMILES)	assay	test system	conditions	measurement	value
CN1CC[C@@H](c2c(O)cc(O)c3c(=O)cc(-c4ccc(C(F)(F)F)cc4Cl)oc23)[C@@H]1CO	item: Hypotension	B-cell malignancies	oral, 150 mg, intermittent dosing	patients with adverse event	0%
C[C@@H]1OC(=O)NN=C1c1ccc(-c2ccc(F)cc2)c(C(F)(F)F)c1	–	patients, phase I trial	oral, dose not given, all arms, any grade TEAE	patients with platelet count decreased	60%
CC(=O)c1c(C)c2cnc(Nc3ccc(C4CCN(CCS(C)(=O)=O)CC4)cn3)nc2n(C2CCCC2)c1=O	–	HR+/HER2- advanced breast cancer patients	oral, 100 mg bid, grade 3/4, monotherapy arm	patients with platelet count decreased	0%
Nc1nc2cc(-c3ccc4ncc(C(=O)N5CCOCC5)n4c3)ccc2o1	item: Cough	advanced solid tumour patients	dose not given	patients with adverse event	0%
CCN(CCO)CCCC(C)Nc1ccnc2cc(Cl)ccc12 (centres unmarked)	item: Headache grade 1	newly diagnosed glioblastoma patients	oral, 400 mg/dose, with radiotherapy and temozolomide	patients with adverse event	14%
COc1c(OCCCN2CCOCC2)ccc2c1N=C(NC(=O)c1cnc(N)nc1)N1CCN=C21	item: Fatigue	patients with advanced malignancies	intravenous, dose not given, any grade, all cohorts, added: gemcitabine	patients with adverse event	76%
O=C1Nc2cc3[nH]nc(-c4ccncc4)c3cc2CN1Cc1ccccc1	CTCAE v4.03	advanced solid tumour patients	intravenous, 3.6 mg/kg, schedules 1/2	patients with decreased appetite	67%
CO[C@H]1C[C@@H]2CC[C@@H](C)[C@@](O)(O2)C(=O)C(=O)N2CCCC[C@H]2C(=O)O[C@H]([C@H](C)C[C@@H]2CC[C@@H](OC(=O)NCCOCCOCCOCCOCCOCCOCCOCCOCCC(=O)N3CCc4cc(Cn5nc(-c6ccc7oc(N)nc7c6)c6c(N)ncnc65)ccc4C3)[C@H](OC)C2)C[C@@H](O)[C@H](C)/C=C(\C)[C@@H](O)[C@@H](OC)C(=O)[C@H](C)C[C@H](C)/C=C/C=C/C=C/1C	item: grade ≥3 treatment-related ALT increase	patients with advanced solid tumours	intravenous, dose not given, all patients, weekly	patients with AE	4%
C=CCNc1c(O)cc2c(O)c1C[C@@H](C)C[C@H](OC)[C@H](O)[C@@H](C)/C=C(\C)[C@H](OC(N)=O)[C@@H](OC)/C=C\C=C(/C)C(=O)N2	item: Nausea	unresectable or metastatic GIST/STS	intravenous, dose not given, all doses	patients with TEAE	52%
Cc1cc(OCCOCCC(F)(F)P(=O)(O)O)ccc1CCc1cnc2c(N)nc3cc(CCC(=O)O)ccc3c2c1	item: chills	adults with advanced solid tumours	dose not given, all groups pooled, all grades	patients with non-serious AE	11.1%
N[C@@H]1c2ccccc2OC12CCN(c1cnc3c(N4CCCc5ncccc54)n[nH]c3n1)CC2	–	advanced solid tumour patients	oral, 10 mg once daily	patients with fatal TEAE	0%
